Assay results of several laboratories.
± marks the error that the study gave.
HCK: Tyrosine-protein kinase HCK (HCK, Homo sapiens, UniProt P08631)
UniProt P08631, sequence (whole entry, looked up): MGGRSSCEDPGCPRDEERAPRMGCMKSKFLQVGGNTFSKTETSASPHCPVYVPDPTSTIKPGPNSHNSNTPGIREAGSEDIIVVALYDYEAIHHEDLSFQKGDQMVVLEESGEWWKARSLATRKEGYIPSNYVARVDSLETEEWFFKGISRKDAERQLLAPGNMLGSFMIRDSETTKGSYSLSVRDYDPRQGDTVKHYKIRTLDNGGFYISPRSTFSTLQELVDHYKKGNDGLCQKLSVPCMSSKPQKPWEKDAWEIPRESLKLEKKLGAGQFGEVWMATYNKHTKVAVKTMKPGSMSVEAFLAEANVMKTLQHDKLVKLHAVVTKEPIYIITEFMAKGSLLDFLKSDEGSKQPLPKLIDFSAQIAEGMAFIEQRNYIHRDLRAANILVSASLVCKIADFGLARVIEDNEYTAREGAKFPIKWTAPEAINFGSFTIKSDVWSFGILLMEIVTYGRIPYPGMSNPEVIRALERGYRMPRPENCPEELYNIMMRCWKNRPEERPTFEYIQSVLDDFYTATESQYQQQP
MKNK2: MAP kinase-interacting serine/threonine-protein kinase 2 (MKNK2, Homo sapiens, UniProt Q9HBH9)
UniProt Q9HBH9, sequence (whole entry, looked up): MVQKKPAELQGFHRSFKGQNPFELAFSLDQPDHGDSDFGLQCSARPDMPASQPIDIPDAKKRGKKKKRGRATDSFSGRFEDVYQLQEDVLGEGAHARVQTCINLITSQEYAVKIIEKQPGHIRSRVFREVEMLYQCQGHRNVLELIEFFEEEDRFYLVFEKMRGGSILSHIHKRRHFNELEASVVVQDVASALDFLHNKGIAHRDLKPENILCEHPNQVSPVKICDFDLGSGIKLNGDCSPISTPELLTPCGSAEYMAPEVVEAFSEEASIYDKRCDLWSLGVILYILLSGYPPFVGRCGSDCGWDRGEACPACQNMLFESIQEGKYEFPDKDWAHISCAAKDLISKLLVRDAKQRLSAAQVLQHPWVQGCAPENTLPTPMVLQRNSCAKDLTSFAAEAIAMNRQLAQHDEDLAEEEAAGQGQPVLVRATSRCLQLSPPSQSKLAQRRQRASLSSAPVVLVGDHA
UniProt P51956, sequence (whole entry, looked up): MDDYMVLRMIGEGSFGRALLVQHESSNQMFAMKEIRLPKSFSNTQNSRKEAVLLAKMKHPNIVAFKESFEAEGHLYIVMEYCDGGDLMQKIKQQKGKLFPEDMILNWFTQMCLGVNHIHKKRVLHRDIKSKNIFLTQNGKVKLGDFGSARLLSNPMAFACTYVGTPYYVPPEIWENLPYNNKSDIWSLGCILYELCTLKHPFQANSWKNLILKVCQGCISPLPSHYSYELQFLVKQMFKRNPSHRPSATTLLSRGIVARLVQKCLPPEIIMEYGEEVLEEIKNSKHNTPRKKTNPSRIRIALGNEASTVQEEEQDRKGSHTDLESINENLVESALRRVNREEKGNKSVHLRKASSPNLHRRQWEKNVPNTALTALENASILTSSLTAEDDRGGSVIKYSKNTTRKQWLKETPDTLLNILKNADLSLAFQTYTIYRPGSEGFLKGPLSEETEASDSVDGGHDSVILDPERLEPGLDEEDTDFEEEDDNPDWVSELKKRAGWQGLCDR
UniProt P06797, sequence (whole entry, looked up): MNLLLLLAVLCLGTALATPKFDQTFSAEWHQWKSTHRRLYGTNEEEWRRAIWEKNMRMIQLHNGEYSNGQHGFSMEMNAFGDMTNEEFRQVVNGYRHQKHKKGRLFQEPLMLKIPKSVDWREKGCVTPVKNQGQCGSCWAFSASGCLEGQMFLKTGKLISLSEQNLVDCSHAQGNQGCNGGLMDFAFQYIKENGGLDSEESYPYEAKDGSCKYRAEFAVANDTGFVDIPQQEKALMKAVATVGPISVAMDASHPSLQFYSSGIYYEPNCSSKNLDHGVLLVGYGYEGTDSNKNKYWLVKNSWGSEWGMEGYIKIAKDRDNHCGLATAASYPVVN
UniProt O43283, sequence (whole entry, looked up): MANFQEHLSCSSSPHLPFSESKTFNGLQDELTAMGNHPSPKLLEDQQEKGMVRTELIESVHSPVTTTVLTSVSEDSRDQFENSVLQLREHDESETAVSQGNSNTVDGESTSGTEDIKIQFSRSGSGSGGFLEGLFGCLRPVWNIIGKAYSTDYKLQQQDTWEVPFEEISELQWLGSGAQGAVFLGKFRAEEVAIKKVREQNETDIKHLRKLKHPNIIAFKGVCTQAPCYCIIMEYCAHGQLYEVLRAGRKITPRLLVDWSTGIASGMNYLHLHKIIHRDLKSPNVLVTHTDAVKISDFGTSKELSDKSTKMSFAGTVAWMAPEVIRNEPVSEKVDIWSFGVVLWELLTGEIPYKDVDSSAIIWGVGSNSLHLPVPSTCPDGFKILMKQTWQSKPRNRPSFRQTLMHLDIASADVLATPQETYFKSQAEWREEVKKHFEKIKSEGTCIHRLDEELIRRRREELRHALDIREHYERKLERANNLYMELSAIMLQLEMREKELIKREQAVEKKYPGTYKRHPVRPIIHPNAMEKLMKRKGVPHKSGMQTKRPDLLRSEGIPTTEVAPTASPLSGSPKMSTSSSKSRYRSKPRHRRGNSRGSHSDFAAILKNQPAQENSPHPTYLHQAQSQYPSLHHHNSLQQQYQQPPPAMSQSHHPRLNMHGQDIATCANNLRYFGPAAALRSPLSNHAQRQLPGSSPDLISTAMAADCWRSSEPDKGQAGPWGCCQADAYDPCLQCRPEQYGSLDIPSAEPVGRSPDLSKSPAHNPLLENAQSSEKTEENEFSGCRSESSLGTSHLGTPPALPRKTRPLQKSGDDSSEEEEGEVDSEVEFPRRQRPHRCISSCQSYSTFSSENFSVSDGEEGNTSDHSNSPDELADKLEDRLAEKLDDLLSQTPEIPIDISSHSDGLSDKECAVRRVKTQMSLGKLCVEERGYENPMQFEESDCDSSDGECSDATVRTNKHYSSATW
UniProt P53778, sequence (whole entry, looked up): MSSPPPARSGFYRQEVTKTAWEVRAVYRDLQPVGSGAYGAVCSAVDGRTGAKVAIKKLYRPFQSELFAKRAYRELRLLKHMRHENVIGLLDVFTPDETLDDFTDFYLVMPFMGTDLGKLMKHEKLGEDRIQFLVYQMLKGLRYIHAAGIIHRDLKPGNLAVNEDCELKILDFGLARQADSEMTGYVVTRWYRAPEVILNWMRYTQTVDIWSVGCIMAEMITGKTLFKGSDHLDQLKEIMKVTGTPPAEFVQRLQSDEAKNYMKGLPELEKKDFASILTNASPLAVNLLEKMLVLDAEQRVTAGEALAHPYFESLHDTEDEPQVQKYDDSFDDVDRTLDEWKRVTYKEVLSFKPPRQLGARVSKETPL
UniProt Q9P0L2, sequence (whole entry, looked up): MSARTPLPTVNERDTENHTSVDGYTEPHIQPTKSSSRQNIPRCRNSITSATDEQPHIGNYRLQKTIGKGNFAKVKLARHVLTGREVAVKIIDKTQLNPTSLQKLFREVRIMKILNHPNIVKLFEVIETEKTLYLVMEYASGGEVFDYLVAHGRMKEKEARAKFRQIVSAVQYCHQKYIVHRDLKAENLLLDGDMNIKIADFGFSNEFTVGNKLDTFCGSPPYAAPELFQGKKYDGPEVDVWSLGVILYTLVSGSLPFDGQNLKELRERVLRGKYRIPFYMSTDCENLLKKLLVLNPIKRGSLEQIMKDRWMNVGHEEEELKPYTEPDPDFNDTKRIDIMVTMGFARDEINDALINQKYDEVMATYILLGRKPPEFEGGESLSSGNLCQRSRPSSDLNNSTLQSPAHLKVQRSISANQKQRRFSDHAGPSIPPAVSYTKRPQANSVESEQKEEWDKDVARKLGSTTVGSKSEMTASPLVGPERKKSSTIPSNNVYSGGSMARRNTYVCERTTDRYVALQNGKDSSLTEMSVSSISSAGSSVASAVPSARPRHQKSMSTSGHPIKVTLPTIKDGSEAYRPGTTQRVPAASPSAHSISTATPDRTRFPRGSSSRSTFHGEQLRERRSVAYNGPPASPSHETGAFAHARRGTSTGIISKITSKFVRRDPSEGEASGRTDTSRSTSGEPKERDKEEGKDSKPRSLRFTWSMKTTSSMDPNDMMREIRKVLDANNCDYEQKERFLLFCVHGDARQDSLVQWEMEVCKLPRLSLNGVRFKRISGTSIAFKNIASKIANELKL
UniProt P37173, sequence (whole entry, looked up): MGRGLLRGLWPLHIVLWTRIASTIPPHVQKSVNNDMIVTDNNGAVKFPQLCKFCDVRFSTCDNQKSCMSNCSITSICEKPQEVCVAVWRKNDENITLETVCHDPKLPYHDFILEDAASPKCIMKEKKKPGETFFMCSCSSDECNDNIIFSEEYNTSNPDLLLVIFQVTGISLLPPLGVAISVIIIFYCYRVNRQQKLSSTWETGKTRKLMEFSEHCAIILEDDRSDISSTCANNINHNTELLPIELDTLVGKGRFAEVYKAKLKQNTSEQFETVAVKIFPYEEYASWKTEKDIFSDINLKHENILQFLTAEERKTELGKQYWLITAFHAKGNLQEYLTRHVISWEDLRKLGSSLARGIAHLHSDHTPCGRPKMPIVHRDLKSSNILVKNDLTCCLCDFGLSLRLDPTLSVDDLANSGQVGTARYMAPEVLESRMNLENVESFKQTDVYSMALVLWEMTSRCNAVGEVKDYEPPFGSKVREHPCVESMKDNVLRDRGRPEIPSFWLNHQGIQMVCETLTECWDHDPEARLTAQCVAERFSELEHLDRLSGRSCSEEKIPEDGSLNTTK

`C=CC(=O)N1CCC[C@@H](n2nc(-c3ccc(Oc4ccccc4)cc3)c3c(N)ncnc32)C1` has a remaining activity of 50.1% (HCK; 10 µM).
For `O=C(NC1CCC1)c1ccc2nc(-c3cccc(NS(=O)(=O)NCCN4CCCCC4)c3)cn2c1`, the remaining activity was 100% (Mitogen-activated protein kinase 12 (MAPK12, Homo sapiens, UniProt P53778); enzyme activity; 10 µM).
With `COc1cc(Nc2ncc3c(n2)-c2ccc(Cl)cc2C(c2c(F)cccc2OC)=NC3)ccc1C(=O)O` the remaining activity was 98% (PASK; kinase activity; 1 µM).
With `Cc1cc(Nc2cc(N3CCN(C)CC3)nc(Sc3ccc(NC(=O)C4CC4)cc3)n2)[nH]n1` the remaining activity was 88% (MKNK2; kinase activity, KinaseProfiler; 0.03 µM, species human; baseline: control).
With `O=C1NC(=O)/C(=C/c2ccc(-c3ccc(F)cc3O)o2)S1` the remaining activity was 88% (Serine/threonine-protein kinase MARK1 (MARK1, Homo sapiens, UniProt Q9P0L2); enzyme activity; 10 µM).
With `COc1ccc(F)cc1C(=O)NCc1ccc(-c2nn([C@@H](C)C(F)(F)F)c(N)c2C(N)=O)cc1` the remaining activity was 58.1 ± 0.7% (HCK; kinase activity, inhibitor, HotSpot radiometric; 1000 nM, with: ATP at Km).
With `COc1cc(N2CCN(C)CC2)ccc1Nc1nc(N)n(C(=S)NCc2c(Cl)cccc2Cl)n1` the remaining activity was 7.5% (Mitogen-activated protein kinase kinase kinase 13 (MAP3K13, Homo sapiens, UniProt O43283); enzyme activity; 10 µM; baseline: control).
`COc1cc(F)ccc1-c1ncnc(Nc2cccc(C[S@](C)(=N)=O)c2)n1` has a remaining activity of 54% (Serine/threonine-protein kinase Nek3 (NEK3, Homo sapiens, UniProt P51956); kinase activity; 10 µM, with: 10 µM ATP).
With `COc1cc(-c2cncc3c2CN(C)Cc2cc(N4CCNCC4)ccc2-3)cc(OC)c1OC` the remaining activity was 100% (MKNK2; kinase activity; 1 µM, human enzyme, with: ATP 10 µM; baseline: DMSO control).
With `O=C(O)c1ccc(Nc2ncc3c(n2)-c2ccc(Cl)cc2C(c2c(F)cccc2F)=NC3)cc1` the remaining activity was 100% (MST2(h); kinase activity; 1 µM).
For `CNc1ncc2c(/C=C/C(=O)N3CCC(OC)CC3)nn(Cc3cccc(C(F)(F)F)c3)c2n1`, the remaining activity was 87% (TGF-beta receptor type-2 (TGFBR2, Homo sapiens, UniProt P37173); kinase activity, inhibitor; 1 µM; baseline: untreated control).
For `Cc1cccc(C)c1C(=O)OCC(=O)[C@H](CCCCN)NC(=O)[C@H](CCCNC(=N)N)NC(=O)OCc1ccccc1`, the remaining activity was 100% (Procathepsin L (Mus musculus, UniProt P06797); inhibitor; 0.1 µM, room temperature, with: AMC substrate).

Repeated from above:
`C=CC(=O)N1CCC[C@@H](n2nc(-c3ccc(Oc4ccccc4)cc3)c3c(N)ncnc32)C1` has a remaining activity of 50.1% (HCK; 10 µM).
With `O=C(O)c1ccc(Nc2ncc3c(n2)-c2ccc(Cl)cc2C(c2c(F)cccc2F)=NC3)cc1` the remaining activity was 100% (MST2(h); kinase activity; 1 µM).
